Measured values pooled from the literature.
Parts stem from different laboratories: compare values within a part only. Changes are numbered by the printed parent chain.

Sample 1
Target: Sal-like protein 4, full length isoform B (SALL4, Homo sapiens, UniProt Q9UJQ4-2, residues 1-616)
Technique: universal PBM
Form: double-stranded DNA, one strand shown
Matrix: in vitro
Concentration: not given
Notes: 8-mer, flanks averaged, mean of replicates
Direction: higher = stronger binding
Quantity: E-score
Target sequence (chain): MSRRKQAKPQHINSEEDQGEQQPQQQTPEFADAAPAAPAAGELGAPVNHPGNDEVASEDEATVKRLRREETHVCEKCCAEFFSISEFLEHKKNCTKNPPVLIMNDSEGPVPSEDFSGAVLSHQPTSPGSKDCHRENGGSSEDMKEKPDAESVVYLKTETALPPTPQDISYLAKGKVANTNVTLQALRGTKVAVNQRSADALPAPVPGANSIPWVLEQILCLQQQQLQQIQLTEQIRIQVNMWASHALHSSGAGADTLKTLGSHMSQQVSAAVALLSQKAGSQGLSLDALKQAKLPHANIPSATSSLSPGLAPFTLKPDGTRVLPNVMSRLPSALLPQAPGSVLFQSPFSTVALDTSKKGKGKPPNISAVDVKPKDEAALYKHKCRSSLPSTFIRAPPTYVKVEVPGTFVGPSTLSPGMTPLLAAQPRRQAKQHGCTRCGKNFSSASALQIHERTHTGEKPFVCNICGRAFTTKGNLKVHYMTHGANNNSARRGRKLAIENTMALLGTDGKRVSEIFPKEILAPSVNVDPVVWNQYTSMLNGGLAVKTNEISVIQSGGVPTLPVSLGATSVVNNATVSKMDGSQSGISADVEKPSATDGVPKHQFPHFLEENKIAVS
AGCTGAAC: -0.228
GTCCCCCA: -0.309
AAACCCCT: -0.25
ATAAGCAT: 0.28
ACTATTTA: 0.268
ATGATGCC: 0.0397
CATGCGCC: -0.273
CGCCACCG: -0.315
AGGCAGCA: -0.01
TGAACCAA: 0.154
AACGCGAC: -0.155
TTACCGAA: 0.0916
ATGCCTCG: 0.0194
AGAGTCAC: -0.106
CTAACCGA: -0.153
AGGCTTAC: -0.056
AGTGAAGA: 0.074
AGAACGAA: 0.0916

Sample 2
Target: Interferon regulatory factor 5, full length, phosphomimetic (IRF5, Homo sapiens, UniProt Q13568-2, residues 1-514, S451D/S453D/S456D/S462D)
Technique: protein-binding microarray
Form: double-stranded DNA, one strand shown
Matrix: in vitro
Concentration: 940 nM top
Notes: 60-bp whole probe
With: salmon DNA 0.4 mg/ml
Relative to: random background probes
Direction: higher = stronger binding
Quantity: fitted relative affinity
All sequences stand within: GCCTAGCAC … GTCTTGATTCGCTTGACGCTGCTG
TTAGGTATCGGGTAACGGTTAGTGCTA: 6.18 z-score
GTAGGTCTCCTTTTCCTTTAGTGCTAG: 0.719 z-score
GACGGTTTCGCACTGGGGACGTGCTAG: 4.02 z-score
TTAGATAGCAGTTTCGATTAGTGCTAG: 6.94 z-score
GACGATTTCGGGTTTCGAGACGTGCTA: 2.25 z-score
GACGCTTTCGGTCTCGGGACGTGCTAG: 6.44 z-score
GACGGTCTCCTTTTCCTGAGGTGCTAG: 0.327 z-score
TTAGAATTCAGTCTCGATTAGTGCTAG: 3.96 z-score
GACGGACTGCTTATCCTGATGTGCTAG: -0.161 z-score
GACGCTTTCAGTTTCGAGACGTGCTAG: 5.41 z-score
TCACATTTGGTTAGCGTACTGTGCTAG: 0.219 z-score
TTTCTAATGTTTTTTAAAGTGTGCTAG: 1.99 z-score
TCACTTTCTGTTTTCTCACTGTGCTAG: 5.6 z-score
TTAGATATCAGTCACGATTAGTGCTAG: 0.0897 z-score
GAAGTTCTTTTTTTCAAGAAGTGCTAG: 0.514 z-score
ATAGATTCCAGTTTCGATTAGTGCTAG: 8.15 z-score
GAGGGTATCGGGACTGGGGACGTGCTA: 2.14 z-score

Sample 3
Target: CCNE2, cyclin fold, Cln2 fusion (human)
Technique: yeast growth competition, sequencing
Matrix: yeast
Notes: strong parent motif
Relative to: not given
Direction: higher = stronger binding
Quantity: normalised enrichment score
Starting sequence: SCAPER docking peptide (human); SNARRSLNFGGST; partner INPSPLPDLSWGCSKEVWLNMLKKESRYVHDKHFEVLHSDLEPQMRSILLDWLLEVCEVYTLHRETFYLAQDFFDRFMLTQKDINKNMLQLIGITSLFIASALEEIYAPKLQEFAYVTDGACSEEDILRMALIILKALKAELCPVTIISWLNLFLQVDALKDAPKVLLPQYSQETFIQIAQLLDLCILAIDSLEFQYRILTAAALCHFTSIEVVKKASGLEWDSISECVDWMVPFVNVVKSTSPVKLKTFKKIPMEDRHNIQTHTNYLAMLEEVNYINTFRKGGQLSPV
S12H: 0.938
G10E: 1.31
S12R: 0.0889
N2E: 0.576
N8M: 0.755
N2W: 0.156
L7P: 0.195
A3S: 0.269
N8H: 1.57
T13C: 1.65
S12K: 1.38
S12D: 1.54
A3H: 0.385

Further values, each from its own experiment
PhoQ, residues 284 288 289 292 302 303 WVSSAF — fold induction (PhoP, residues 12 14 15 18 19 IQFRS (Escherichia coli, UniProt P23836); Sort-seq, refers to: YFP reporter; E. coli; PhoQ-PhoP variant library, with: 10 µM Mg2+; relative to: high Mg2+ state, higher = stronger signaling): 5.07
